Experimental data of several laboratories.
Every numbered part comes from another study and shows a few of its results, in no order. Values joined by “and” are separate records of one study, mostly repeats; a detail may differ.
UniProt P10721, sequence (whole entry, unmodified, looked up): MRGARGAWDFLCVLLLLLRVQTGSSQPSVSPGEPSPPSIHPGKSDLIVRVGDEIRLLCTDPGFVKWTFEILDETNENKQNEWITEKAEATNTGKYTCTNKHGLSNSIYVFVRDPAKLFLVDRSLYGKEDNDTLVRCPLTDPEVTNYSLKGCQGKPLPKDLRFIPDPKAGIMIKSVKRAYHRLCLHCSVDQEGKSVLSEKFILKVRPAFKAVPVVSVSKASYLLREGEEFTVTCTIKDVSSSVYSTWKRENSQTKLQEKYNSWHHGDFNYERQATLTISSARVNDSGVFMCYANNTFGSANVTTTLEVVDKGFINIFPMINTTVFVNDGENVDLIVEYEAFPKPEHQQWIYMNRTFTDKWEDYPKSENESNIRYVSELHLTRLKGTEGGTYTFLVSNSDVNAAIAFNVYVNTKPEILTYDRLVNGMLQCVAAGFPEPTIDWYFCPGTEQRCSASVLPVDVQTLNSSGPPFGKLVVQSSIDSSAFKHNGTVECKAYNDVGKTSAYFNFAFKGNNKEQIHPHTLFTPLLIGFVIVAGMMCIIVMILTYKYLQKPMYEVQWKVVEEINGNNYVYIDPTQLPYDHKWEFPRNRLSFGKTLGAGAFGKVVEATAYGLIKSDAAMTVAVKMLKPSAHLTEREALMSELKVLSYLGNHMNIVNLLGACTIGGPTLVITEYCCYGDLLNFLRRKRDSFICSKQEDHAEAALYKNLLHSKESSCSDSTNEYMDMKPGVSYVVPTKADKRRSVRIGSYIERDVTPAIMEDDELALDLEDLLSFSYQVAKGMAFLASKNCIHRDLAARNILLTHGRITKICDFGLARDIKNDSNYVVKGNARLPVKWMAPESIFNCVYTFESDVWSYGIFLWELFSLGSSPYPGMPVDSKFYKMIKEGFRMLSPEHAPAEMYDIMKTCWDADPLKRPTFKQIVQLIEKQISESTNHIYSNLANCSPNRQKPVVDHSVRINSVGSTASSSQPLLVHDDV
UniProt Q7L7X3, sequence (whole entry, looked up): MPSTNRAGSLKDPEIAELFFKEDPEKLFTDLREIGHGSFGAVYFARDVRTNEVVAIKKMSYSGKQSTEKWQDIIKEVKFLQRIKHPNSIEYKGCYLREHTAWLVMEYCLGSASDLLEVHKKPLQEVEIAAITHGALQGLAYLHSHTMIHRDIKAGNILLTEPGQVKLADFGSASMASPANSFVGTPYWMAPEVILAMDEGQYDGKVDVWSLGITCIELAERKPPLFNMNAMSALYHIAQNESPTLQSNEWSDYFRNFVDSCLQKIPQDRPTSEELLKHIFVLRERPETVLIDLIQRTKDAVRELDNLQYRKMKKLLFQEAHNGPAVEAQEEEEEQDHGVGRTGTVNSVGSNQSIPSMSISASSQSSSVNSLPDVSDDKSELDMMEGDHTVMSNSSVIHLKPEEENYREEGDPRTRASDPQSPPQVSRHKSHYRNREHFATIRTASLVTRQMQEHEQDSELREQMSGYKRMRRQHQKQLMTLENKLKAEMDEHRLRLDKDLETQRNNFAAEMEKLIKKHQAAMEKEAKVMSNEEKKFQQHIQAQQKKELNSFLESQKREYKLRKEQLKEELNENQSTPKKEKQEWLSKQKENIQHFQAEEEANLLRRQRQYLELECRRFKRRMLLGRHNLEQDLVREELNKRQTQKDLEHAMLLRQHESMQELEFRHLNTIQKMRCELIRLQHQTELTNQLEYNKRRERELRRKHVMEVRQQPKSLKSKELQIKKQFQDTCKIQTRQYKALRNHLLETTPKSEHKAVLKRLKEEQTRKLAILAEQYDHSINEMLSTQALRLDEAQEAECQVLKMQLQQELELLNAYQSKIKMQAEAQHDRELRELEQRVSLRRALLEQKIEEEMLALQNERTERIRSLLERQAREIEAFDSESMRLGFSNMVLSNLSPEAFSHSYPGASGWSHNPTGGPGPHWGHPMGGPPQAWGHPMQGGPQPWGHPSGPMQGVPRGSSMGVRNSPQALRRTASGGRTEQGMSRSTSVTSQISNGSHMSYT
UniProt Q08345, sequence (whole entry, looked up): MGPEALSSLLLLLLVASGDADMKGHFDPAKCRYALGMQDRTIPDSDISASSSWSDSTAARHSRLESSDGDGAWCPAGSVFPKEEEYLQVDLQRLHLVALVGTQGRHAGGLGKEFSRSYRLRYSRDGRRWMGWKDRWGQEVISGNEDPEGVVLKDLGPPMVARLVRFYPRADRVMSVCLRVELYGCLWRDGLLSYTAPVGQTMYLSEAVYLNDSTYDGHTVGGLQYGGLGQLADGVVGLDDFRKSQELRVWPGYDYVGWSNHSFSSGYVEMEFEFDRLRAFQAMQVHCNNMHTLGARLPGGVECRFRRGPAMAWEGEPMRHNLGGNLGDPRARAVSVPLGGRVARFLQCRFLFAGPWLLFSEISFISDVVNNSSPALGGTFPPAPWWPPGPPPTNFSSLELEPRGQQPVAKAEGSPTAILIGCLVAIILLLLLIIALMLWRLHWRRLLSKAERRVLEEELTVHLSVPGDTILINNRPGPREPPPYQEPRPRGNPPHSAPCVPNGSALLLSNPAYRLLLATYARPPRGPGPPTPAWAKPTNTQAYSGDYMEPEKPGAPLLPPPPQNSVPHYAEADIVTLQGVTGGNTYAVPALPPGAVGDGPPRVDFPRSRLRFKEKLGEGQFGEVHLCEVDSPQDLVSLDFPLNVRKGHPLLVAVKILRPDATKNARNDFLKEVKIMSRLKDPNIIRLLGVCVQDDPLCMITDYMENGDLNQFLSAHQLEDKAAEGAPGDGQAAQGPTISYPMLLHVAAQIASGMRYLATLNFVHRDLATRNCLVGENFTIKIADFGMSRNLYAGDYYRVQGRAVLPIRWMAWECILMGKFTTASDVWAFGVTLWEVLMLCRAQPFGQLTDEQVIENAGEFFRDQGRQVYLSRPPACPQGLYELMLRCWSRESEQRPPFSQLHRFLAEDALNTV
UniProt P07947, sequence (whole entry, looked up): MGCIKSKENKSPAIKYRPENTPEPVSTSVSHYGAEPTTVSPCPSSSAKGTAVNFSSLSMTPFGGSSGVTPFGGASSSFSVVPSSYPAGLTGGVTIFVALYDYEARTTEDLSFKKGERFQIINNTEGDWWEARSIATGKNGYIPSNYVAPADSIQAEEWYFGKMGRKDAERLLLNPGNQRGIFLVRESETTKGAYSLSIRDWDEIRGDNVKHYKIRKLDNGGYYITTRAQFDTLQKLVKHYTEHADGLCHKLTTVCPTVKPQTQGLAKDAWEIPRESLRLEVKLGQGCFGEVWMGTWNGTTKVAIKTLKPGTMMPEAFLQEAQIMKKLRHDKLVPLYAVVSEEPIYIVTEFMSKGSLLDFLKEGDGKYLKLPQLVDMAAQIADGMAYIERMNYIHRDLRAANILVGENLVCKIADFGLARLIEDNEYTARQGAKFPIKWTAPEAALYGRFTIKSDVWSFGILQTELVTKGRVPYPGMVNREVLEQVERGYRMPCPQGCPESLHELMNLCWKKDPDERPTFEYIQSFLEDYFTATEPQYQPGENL
UniProt P54756, sequence (whole entry, looked up): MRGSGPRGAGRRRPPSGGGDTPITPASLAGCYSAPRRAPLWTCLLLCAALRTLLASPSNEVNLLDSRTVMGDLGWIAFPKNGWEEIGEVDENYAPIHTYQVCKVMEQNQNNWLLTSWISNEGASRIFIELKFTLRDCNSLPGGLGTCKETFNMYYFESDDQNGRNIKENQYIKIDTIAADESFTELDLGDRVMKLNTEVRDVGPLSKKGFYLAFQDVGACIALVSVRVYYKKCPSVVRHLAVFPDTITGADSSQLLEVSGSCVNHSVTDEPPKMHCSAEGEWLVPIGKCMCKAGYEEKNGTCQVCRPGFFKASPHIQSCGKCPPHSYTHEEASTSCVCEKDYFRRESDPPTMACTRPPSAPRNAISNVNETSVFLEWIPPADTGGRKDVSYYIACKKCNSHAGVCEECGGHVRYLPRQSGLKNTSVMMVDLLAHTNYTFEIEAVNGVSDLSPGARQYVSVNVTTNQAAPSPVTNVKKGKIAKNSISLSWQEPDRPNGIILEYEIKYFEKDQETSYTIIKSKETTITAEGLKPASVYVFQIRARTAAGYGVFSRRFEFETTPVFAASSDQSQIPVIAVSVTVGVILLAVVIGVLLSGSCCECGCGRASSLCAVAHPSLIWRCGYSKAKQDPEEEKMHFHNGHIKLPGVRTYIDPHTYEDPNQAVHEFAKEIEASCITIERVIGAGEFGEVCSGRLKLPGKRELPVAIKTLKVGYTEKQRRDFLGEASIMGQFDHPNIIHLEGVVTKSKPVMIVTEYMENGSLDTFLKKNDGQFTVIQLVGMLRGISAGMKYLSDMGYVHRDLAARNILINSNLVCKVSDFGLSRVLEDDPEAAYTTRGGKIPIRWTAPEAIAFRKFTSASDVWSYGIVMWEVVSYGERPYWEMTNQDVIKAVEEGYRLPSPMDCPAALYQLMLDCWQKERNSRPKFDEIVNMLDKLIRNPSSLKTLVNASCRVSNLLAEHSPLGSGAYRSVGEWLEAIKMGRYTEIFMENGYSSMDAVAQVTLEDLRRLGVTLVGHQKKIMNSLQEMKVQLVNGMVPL

Set 1
SMILES: NS(=O)(=O)c1cc(NC(=O)C2(c3ccccc3Cl)CC2)ccc1Oc1cccc(Cl)c1
Method: competition with immobilised ligand
Tested at: 1 µM
target | test | remaining binding [%]
EPHA5 (Homo sapiens, UniProt P54756) | cell-free assay | 79
RIPK1 (Homo sapiens, UniProt Q13546) | cell-free assay | 93
SGK3 (Homo sapiens, UniProt Q96BR1) | cell-free assay | 90
DDR1 (Homo sapiens, UniProt Q08345) | cell-free assay | 83
CLK4 (Homo sapiens, UniProt Q9HAZ1) | cell-free assay | 100
EGFR (Homo sapiens, UniProt P00533, L861Q) | cell-free assay | 76
Tyrosine-protein kinase ABL1, non-phosphorylated (ABL1, Homo sapiens, UniProt P00519, H396P) | cell-free assay | 81
TAOK1 (Homo sapiens, UniProt Q7L7X3) | cell-free assay | 91
KIT (Homo sapiens, UniProt P10721, V559D/V654A) | cell-free assay | 100
YES1 (Homo sapiens, UniProt P07947) | cell-free assay | 90
NEK10 (Homo sapiens, UniProt Q6ZWH5) | cell-free assay | 89
BMX (Homo sapiens, UniProt P51813) | cell-free assay | 87
MAP4K5 (Homo sapiens, UniProt Q9Y4K4) | cell-free assay | 100
KIT (Homo sapiens, UniProt P10721, D816V) | cell-free assay | 93
Tyrosine-protein kinase ABL1, phosphorylated (ABL1, Homo sapiens, UniProt P00519, M351T) | cell-free assay | 70
HIPK1 (Homo sapiens, UniProt Q86Z02) | cell-free assay | 91
CILK1 (Homo sapiens, UniProt Q9UPZ9) | binding | 100

Set 2
Cell line: A-375
Tested at: 100 µM
Time: 36 h
SMILES | viability
CCCCOc1ccc(OCCCN2CCOCC2)cc1 | 52.8%
O=C(OC[C@H]1O[C@@H](OC(=O)c2cc(O)c(O)c(OC(=O)c3cc(O)c(O)c(O)c3)c2)[C@H](OC(=O)c2cc(O)c(O)c(OC(=O)c3cc(O)c(O)c(O)c3)c2)[C@@H](OC(=O)c2cc(O)c(O)c(OC(=O)c3cc(O)c(O)c(O)c3)c2)[C@@H]1OC(=O)c1cc(O)c(O)c(OC(=O)c2cc(O)c(O)c(O)c2)c1)c1cc(O)c(O)c(OC(=O)c2cc(O)c(O)c(O)c2)c1 | 24.6%
Cc1ccc([C@@H]2O[C@H](CO)[C@@H](O)[C@H](O)[C@H]2O)cc1Cc1ccc(-c2ccc(F)cc2)s1 | 1.05%
CCOc1cc(CC(=O)N[C@@H](CC(C)C)c2ccccc2N2CCCCC2)ccc1C(=O)O | 48.2%
CC(C(=O)O)c1ccc2c(c1)CC(=O)c1ccccc1S2 (centres unmarked) | 98.1%
C=CCN1CCCC1CNC(=O)c1cc2[nH]nnc2cc1OC (centres unmarked) | 114%
CC1(C)S[C@@H]2[C@H](NC(=O)[C@H](N)c3ccccc3)C(=O)N2[C@H]1C(=O)O | 75.9% and 96.8%
CCOC(=O)C1=C(C)NC(C)=C(C(=O)OC)C1c1cccc([N+](=O)[O-])c1 (centres unmarked) | 2.48%
C=C[C@H]1[C@H](O[C@@H]2O[C@H](CO)[C@@H](O)[C@H](O)[C@H]2O)OC=C2C(=O)OCC[C@]21O | 113%

Set 3
Cell line: mouse MPNST tumor cells
Method: high-content immunofluorescence imaging
Item: nuclear SOX9
Tested at: 10 µM
Time: 12 h
Notes: mean of 2 replicates
Relative to: DMSO control
Reading: higher = more nuclear SOX9
SMILES | nuclear SOX9 intensity
Oc1nc(-c2ccc(C(F)(F)F)cc2)nc2c1CSCC2 | 78.2 % of DMSO
COCc1ccc(-c2cc3c(N[C@@H](C)c4ccn(C)n4)c(C(N)=O)cnc3cc2F)cn1 | 101 % of DMSO
COc1cc2ncnc(Nc3ccc(F)c(Cl)c3)c2cc1OCCCN1CCOCC1 | 229 % of DMSO and 197 % of DMSO and 201 % of DMSO
CC1(C)O[C@@H]2C[C@H]3[C@@H]4CCC5=CC(=O)CC[C@]5(C)[C@@]4(F)[C@@H](O)C[C@]3(C)[C@]2(C(=O)CCl)O1 | 88.1 % of DMSO
CCCC1C(=O)N2C(N(C)C)=Nc3ccc(C)cc3N2C1=O (centres unmarked) | 94.1 % of DMSO
Cc1ccccc1N1C(=O)c2cc(S(N)(=O)=O)c(Cl)cc2NC1C (centres unmarked) | 94.8 % of DMSO
CCOC(=O)c1ccc(N(C)c2csc(-c3ccccc3)n2)cc1 | 99.6 % of DMSO

Set 4
Target: Dual specificity protein kinase CLK2 (CLK2, Homo sapiens, UniProt P49760)
UniProt P49760, sequence (whole entry, looked up): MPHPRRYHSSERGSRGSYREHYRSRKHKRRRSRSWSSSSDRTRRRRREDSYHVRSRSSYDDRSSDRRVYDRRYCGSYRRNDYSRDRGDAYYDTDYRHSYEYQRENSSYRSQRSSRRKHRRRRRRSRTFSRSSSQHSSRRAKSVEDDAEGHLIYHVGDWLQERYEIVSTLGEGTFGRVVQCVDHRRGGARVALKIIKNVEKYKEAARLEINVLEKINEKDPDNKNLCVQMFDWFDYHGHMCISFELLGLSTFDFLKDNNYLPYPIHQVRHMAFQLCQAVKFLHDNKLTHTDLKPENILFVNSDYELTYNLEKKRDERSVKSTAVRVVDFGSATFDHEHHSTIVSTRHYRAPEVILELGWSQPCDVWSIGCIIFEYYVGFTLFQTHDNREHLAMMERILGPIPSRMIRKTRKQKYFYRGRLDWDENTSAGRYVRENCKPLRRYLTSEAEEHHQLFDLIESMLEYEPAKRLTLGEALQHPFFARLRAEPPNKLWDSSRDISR
Observed: enzyme activity
Mode: inhibitor
Tested at: 0.5 µM
Relative to: control
SMILES | remaining activity [%]
Cc1cc2ncc(-c3ccccc3)nc2cc1C | 102
Cc1cn(-c2cc(NC(=O)c3ccc(C)c(Nc4nccc(-c5cccnc5)n4)c3)cc(C(F)(F)F)c2)cn1 | 91.4
COc1cc2c(cc1OC)-c1[nH]nc(Nc3cccc(F)c3)c1C2 | 84.3
Cc1nc2cc3nc(-c4cccs4)cnc3cc2n1C | 95.3
CN([C@@H](Cc1ccc(OS(=O)(=O)c2cccc3cnccc23)cc1)C(=O)N1CCN(c2ccccc2)CC1)S(=O)(=O)c1cccc2cnccc12 | 93
O=C(Nc1cccc(Nc2nccc(Nc3cccc(C(F)(F)F)c3)n2)c1)C1CC1 | 87.6
c1ccc(-c2cnc(Nc3ccc(OCCN4CCCC4)cc3)s2)cc1 | 102
O=C1C(Cl)=C(N2C(=O)CCC2=O)C(=O)c2ccccc21 | 90.7

Repeated from above (set 1):
target | test | remaining binding [%]
Tyrosine-protein kinase ABL1, phosphorylated (ABL1, Homo sapiens, UniProt P00519, M351T) | cell-free assay | 70
RIPK1 (Homo sapiens, UniProt Q13546) | cell-free assay | 93
KIT (Homo sapiens, UniProt P10721, D816V) | cell-free assay | 93
DDR1 (Homo sapiens, UniProt Q08345) | cell-free assay | 83
